Results gathered from unrelated publications.
Every numbered part comes from another study and shows a few of its results, in no order. Positions count from the first letter of the parent shown.
Sequence of UniProt P49137 (whole entry, looked up): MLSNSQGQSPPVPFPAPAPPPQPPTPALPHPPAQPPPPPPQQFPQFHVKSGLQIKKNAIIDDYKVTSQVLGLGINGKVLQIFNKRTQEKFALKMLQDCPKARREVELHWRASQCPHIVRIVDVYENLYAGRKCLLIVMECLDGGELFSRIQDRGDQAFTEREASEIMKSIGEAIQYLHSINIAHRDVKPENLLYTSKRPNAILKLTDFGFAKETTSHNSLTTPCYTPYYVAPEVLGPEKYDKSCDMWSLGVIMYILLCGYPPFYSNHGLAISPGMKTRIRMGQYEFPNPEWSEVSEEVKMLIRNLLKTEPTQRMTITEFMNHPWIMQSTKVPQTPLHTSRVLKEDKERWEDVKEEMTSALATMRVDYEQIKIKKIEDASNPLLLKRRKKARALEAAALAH
Sequence of UniProt Q02763 (whole entry, looked up): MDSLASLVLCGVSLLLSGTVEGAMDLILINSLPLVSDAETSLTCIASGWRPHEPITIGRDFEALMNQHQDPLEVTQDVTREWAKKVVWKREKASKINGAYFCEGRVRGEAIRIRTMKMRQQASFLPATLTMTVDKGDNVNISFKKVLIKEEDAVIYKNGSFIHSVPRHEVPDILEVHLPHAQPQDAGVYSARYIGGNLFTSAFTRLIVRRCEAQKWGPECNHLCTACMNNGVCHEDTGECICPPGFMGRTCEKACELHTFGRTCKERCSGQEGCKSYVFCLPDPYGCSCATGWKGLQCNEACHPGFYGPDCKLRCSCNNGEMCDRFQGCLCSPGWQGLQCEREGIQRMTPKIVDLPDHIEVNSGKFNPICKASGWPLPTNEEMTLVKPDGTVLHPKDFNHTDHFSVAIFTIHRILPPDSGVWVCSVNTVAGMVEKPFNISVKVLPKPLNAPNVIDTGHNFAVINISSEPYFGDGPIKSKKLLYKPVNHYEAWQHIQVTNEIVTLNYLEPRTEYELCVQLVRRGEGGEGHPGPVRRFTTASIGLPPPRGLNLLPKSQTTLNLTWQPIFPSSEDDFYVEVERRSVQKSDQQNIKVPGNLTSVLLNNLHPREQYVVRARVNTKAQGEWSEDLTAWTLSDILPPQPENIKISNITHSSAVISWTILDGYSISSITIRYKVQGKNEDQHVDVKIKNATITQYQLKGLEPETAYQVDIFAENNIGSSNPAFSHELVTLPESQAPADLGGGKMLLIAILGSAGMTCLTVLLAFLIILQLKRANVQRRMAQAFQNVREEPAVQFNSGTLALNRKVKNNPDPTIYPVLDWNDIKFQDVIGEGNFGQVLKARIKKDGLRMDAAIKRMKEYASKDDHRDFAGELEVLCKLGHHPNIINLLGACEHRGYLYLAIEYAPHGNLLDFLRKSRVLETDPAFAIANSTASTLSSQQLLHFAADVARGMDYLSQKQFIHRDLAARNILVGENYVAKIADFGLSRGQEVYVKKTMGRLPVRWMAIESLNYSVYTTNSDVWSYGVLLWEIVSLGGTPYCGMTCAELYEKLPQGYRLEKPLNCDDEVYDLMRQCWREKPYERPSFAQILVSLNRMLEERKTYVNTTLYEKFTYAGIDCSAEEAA
Sequence of UniProt Q9Y6M4 (whole entry, looked up): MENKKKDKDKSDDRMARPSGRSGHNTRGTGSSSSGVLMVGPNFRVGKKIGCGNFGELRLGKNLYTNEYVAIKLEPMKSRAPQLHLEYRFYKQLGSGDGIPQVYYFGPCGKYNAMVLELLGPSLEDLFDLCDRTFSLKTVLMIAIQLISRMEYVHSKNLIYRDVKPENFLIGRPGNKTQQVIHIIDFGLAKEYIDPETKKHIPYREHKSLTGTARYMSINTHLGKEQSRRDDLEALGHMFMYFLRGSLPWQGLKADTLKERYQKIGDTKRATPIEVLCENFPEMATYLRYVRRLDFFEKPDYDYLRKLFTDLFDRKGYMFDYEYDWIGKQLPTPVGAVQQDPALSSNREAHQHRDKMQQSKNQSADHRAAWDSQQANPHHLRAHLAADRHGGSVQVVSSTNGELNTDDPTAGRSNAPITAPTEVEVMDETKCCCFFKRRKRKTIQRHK
Sequence of UniProt P06239 (whole entry, looked up): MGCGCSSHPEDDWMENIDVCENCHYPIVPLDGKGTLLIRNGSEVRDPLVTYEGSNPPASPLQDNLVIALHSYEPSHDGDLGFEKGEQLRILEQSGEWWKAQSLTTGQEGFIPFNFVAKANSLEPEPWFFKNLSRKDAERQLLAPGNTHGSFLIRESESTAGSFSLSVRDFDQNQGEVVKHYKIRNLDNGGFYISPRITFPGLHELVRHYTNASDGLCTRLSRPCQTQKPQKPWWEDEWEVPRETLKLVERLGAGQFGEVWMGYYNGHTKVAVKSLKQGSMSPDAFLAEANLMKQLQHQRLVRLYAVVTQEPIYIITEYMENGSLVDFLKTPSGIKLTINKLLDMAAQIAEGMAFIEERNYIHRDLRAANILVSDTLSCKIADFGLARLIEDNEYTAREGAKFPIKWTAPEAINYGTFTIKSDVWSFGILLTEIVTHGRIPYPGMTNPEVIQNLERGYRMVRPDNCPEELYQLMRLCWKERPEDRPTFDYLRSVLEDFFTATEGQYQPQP
Sequence of UniProt Q15349 (whole entry, looked up): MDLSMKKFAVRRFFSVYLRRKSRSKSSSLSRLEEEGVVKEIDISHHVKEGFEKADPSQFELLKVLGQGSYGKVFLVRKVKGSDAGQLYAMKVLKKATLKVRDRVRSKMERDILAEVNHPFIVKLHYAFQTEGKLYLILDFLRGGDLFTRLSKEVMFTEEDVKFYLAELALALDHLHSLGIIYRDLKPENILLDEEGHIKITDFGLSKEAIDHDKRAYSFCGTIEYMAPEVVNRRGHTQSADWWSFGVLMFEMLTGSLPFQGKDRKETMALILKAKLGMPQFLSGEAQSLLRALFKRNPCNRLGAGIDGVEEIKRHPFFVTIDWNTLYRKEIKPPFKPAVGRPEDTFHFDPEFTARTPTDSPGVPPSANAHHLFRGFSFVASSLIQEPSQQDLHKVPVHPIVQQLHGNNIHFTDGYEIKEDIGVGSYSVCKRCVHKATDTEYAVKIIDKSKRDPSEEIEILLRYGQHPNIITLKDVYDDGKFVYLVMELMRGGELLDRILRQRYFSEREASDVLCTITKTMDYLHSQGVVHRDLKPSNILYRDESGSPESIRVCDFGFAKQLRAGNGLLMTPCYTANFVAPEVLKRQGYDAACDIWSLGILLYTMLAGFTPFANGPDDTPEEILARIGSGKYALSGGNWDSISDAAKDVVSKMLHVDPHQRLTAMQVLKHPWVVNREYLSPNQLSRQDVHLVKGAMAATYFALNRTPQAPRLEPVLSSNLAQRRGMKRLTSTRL
Sequence of UniProt Q9HC98 (whole entry, looked up): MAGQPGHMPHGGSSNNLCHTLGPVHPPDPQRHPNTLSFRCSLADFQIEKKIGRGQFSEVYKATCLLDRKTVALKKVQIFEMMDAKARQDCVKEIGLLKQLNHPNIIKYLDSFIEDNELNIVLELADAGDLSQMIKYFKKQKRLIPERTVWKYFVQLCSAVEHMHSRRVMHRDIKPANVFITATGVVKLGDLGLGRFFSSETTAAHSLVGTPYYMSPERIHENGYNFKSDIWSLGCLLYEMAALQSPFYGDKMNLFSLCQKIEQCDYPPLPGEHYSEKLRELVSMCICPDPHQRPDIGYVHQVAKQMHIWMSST
Sequence of UniProt P78368 (whole entry, looked up): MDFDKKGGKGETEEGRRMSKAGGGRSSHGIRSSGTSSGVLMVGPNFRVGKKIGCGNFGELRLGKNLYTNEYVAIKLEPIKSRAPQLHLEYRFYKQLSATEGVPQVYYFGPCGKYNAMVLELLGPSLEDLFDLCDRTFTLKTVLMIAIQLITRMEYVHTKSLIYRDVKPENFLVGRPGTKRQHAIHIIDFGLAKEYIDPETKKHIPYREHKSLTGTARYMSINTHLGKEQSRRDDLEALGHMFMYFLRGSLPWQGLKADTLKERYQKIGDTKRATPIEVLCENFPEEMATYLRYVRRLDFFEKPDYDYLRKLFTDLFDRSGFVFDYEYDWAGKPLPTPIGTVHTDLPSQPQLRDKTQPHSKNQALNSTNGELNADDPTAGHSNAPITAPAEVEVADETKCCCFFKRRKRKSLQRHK
Sequence of UniProt Q8WTQ7 (whole entry, looked up): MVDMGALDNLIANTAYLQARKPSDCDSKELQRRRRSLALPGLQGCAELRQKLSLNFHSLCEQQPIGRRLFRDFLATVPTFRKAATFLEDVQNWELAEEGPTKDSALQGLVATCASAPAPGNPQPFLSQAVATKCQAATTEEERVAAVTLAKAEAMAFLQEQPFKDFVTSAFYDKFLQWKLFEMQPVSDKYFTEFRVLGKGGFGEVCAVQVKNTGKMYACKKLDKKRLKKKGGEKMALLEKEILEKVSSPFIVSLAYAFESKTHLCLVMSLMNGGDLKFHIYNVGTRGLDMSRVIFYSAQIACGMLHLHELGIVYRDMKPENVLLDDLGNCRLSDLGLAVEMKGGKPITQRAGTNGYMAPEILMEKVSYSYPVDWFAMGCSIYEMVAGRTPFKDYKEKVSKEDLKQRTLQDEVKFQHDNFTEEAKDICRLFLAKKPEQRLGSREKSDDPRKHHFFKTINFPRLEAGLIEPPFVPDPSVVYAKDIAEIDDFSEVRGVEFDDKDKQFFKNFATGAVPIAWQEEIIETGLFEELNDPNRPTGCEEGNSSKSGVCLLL
Sequence of UniProt P36896 (whole entry, looked up): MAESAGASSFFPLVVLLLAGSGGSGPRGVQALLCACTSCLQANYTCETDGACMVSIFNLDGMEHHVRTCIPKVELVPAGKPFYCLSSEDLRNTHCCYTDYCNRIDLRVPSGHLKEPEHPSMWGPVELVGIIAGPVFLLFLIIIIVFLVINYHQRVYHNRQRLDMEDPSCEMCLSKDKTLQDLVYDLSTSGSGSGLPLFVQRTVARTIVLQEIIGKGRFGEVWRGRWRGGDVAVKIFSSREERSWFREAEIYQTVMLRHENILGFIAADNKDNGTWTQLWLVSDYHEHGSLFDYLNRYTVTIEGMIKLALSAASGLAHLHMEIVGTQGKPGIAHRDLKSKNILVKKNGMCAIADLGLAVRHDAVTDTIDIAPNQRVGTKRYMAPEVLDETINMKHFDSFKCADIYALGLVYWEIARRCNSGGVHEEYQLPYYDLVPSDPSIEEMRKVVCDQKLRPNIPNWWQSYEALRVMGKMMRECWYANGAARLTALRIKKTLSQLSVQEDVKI

Set 1
Compound: COc1ccc(Cl)cc1NC(=O)Nc1cc(C)nc2ccccc12
Read-out: enzyme activity
Action: inhibitor
Tested at: 0.5 µM
Relative to: control
target | remaining activity
TEK (Homo sapiens, UniProt Q02763) | 96.8%
CSNK1G2 (Homo sapiens, UniProt P78368) | 98.5%
ACVR1B (Homo sapiens, UniProt P36896) | 97.4%
LCK (Homo sapiens, UniProt P06239) | 98.2%
MAP3K5 (Homo sapiens, UniProt Q99683) | 101%
JAK3 (Homo sapiens, UniProt P52333) | 103%
CSNK1G3 (Homo sapiens, UniProt Q9Y6M4) | 95.7%
MAPKAPK2 (Homo sapiens, UniProt P49137) | 109%
NEK6 (Homo sapiens, UniProt Q9HC98) | 97.8%
RPS6KA2 (Homo sapiens, UniProt Q15349) | 99.8%
ARAF (Homo sapiens, UniProt P10398) | 92.4%
ULK2 (Homo sapiens, UniProt Q8IYT8) | 106%
GRK7 (Homo sapiens, UniProt Q8WTQ7) | 101%

Set 2
Target: CCND2, cyclin fold, Cln2 fusion (human)
Method: yeast growth competition, sequencing
Medium: yeast
Setting: weak parent motif
Relative to: not given
Reading: higher = stronger binding
Parent: BRCA2 docking peptide (human); PSIKRNLLNEFDR
Substitution | normalised enrichment score
N9V | 0.0997
R5P | 0.134
L7T | 0.285
L8N | 0.31
R5M | 0.287
N9H | 0.385
I3R | 0.0453
P1W | 0.688

Set 3
Target: RNA binding protein fox-1 homolog 2, RRM domain, GST-SBP tag (RBFOX2, Homo sapiens, UniProt O43251-10, residues 100-194)
Method: RNA Bind-n-Seq
Molecule type: RNA
Medium: in vitro
Tested at: 365 nM
Setting: natural RNA segment, single round, ends assumed
Relative to: no-protein control
Reading: higher = stronger binding
Target sequence (chain): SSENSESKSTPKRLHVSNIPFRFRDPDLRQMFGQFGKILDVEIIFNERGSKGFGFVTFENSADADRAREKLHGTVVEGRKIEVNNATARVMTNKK
Sequence | RBNS enrichment (R)
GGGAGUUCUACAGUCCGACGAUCGCCCUCCUUCUUUAUUUUUUUCCCAUUGCAUUCUGGGAGUCCACAUCUGGCUUUCUCAGCCACUGUUCAUCACCAGGGGUUUUAGGAGGAAGGCUUGGCUCCUGUCUUCCUGGAAUUCUCGGGUGCCAA | 1.11
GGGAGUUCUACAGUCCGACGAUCCAAAGAAGCAAGACGAGCCAGGUUACUGACAUAAUCUUUAUGACAUGUGUACUGCAGUUGUGCCUUUUCUACAACACUGCAUUGAAUAAACUUGUCCGAAGUAUCGUUUUUGGAAUUCUCGGGUGCCAA | 0.273
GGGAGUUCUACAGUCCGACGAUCGCAACAACCUUCUCAUUGAGAUGCUGCAGGCCAAGCAGACUUGAGCCUGGGUGCCAGGCAGCGGGCAAUAGGCAGGGAUGCCACUGCCUCCAAAAGACUCCUUGCAUUAGUGGAAUUCUCGGGUGCCAA | 1.08
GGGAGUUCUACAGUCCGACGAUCAGAUAAAAUAUAUAUCCAAAAUAAUUUUGUGAGUUAUUUUCCUUCUGGCAUUUAAUACCUACAUGAUUUGUGAGCUACUUCUGCCUUCUCCUUCUCUGCUCUUAAACCUGUGGAAUUCUCGGGUGCCAA | 0.558
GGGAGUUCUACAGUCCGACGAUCAUUGUUUUUGCACCAGACGAACAGUGAGGAAAUUCGGAGCUAUACAUAUGUGCAGAAGGUUACUACCUAGGGUUUAUGCUUAAUUUUAAUUGGAGGAAAUGAAUGCUGAUUGGAAUUCUCGGGUGCCAA | 2.08
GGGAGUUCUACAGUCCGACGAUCCAGAGCGCCUCUCUGGCACCACAGCAGGGAUCGUCAGGUAAUAAACACUCUUGAUUCCCUGAGGAAAUAUCGGUCCCUUUGUCUUGGGCAGAGCAGUCUUAUGAAGCUGGUGGAAUUCUCGGGUGCCAA | 0.307
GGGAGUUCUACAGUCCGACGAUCAGUGCACUGGCCCUCUUUGAAAGGGCUUUACAGUGGGGGCACCAAGACCCCAAAGGGCCCAGGCCAGGAGACUGUUAAAGUGAAAAGGCAAUCUAUGACUCACCUUGCUCUGGAAUUCUCGGGUGCCAA | 0.322
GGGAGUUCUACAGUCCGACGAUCUUAUUGUGGAUGGAUGUGGAUAUAUUCUGUACAGAAAACUACUCAUAUGGAAGUGGACUGAAUCCUAUGUAGAAACAUACACUGAACAUUGUUAUUCAUUUUGUAAAAUAUGGAAUUCUCGGGUGCCAA | 0.684

Other studies, line by line
SMILES | cell line | conditions | how to read | quantity | value
CC(=O)C1=C(C)N(c2cccc(C(F)(F)F)c2)C(=O)N[C@H]1c1ccc(C#N)nc1 | patient-derived normal-adjacent epithelium organoids | 1 µM | relative to: DMSO control | viability | 127%

Some of these lines once more (set 1):
target | remaining activity
CSNK1G3 (Homo sapiens, UniProt Q9Y6M4) | 95.7%
MAPKAPK2 (Homo sapiens, UniProt P49137) | 109%
NEK6 (Homo sapiens, UniProt Q9HC98) | 97.8%
RPS6KA2 (Homo sapiens, UniProt Q15349) | 99.8%
